{"data": "Published values of several laboratories", "note": "A part holds a random share of what one study measured. Changes are numbered by the printed parent chain."}
{"data": "Series 1", "target": "UBE2T UBC core domain (UniProt Q9NPD8)", "method": "yeast two-hybrid", "sample": "yeast", "setting": "mostly zero background", "reference": "not given", "direction": "higher = stronger interaction", "B1": "RNF187 RING domain (UniProt Q5TA31); chain ALPAGPAEAACALCQRAPREPVRADCGHRFCRACVVRFWAEEDGPFPCPECADDCWQRAVEP", "B2": "TRIM31 RING domain (UniProt Q9BZY9); chain FVNKLQEEVICPICLDILQKPVTIDCGHNFCLKCITQIGETSCGFFKCPLCKTSVRKNAIRF", "B3": "TRIM22 RING domain (UniProt Q8IYM9); chain VKVDIEKEVTCPICLELLTEPLSLDCGHSFCQACITAKIKESVIISRGESSCPVCQTRFQPGNLRP", "B4": "TRIM37 RING domain (UniProt O94972); chain SVESIAEVFRCFICMEKLRDARLCPHCSKLCCFSCIRRWLTEQRAQCPHCRAPLQLRELVN", "B5": "TRIM60 RING domain (UniProt Q495X7); chain ALVNLQEESSCPICLEYLKDPVTINCGHNFCRSCLSVSWKDLDDTFPCPVCRFCFPYKSFRR", "B6": "TRIM54 RING domain (UniProt Q9BYV2); chain SMDNLEKQLICPICLEMFSKPVVILPCQHNLCRKCANDVFQASNPLWQSRGSTTVSSGGRFRCPSCRHEVVLDRHGV", "Residues (chain)": "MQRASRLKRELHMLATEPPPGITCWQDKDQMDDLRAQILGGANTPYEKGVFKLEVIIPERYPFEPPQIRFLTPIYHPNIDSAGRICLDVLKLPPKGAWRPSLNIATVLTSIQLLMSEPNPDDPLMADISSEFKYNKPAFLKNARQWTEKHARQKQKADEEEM"}
{"Molecule": "B1 (RNF187 RING domain)", "lacZ reporter activity": 0}
{"Molecule": "MNDVLENELQCIICSEYFIEAVTLNCAHSFCSYCINEWMKRKIECPICRKDIKSKTYSL (RNF8 RING domain (UniProt O76064))", "lacZ reporter activity": 0}
{"Molecule": "AEADPLGRFTCPVCLEVYEKPVQVPCGHVFCSACLQECLKPKKPVCGVCRSALAPGVRAV (RNF114 RING domain (UniProt Q9Y508))", "lacZ reporter activity": 0}
{"Molecule": "PEELAVNNDDCAICWDSMQAARKLPCGHLFHNSCLRSWLEQDTSCPTCRMSLNIADNNR (AMFR RING domain (UniProt Q9UKV5))", "lacZ reporter activity": 8780}
{"Molecule": "FVKTVEDKYKCEKCHLVLCSPKQTECGHRFCESCMAALLSSSSPKCTACQESIVKDKVF (TRAF3 RING domain (UniProt Q13114))", "lacZ reporter activity": 0}
{"Molecule": "B2 (TRIM31 RING domain)", "lacZ reporter activity": 0}
{"Molecule": "YPEEVDDDLICHICLQALLDPLDTPCGHTYCTLCLTNFLVEKDFCPMDRKPLVLQHCKK (LNX1 RING domain (UniProt Q8TBB1))", "lacZ reporter activity": 0}
{"Molecule": "B3 (TRIM22 RING domain)", "lacZ reporter activity": 0}
{"Molecule": "QVQSRTKIEECVVCSDKKAAVLFQPCGHMCACENCANLMKKCVQCRAVVERRVPFI (MIB1 RING domain (UniProt Q86YT6))", "lacZ reporter activity": 0}
{"Molecule": "B4 (TRIM37 RING domain)", "lacZ reporter activity": 0}
{"Molecule": "B5 (TRIM60 RING domain)", "lacZ reporter activity": 0}
{"Molecule": "B6 (TRIM54 RING domain)", "lacZ reporter activity": 0}
{"Molecule": "RYRQMEERITCPICIDSHIRLVFQCGHGACAPCGSALSACPICRQPIRDRIQIF (MIB2 RING domain (UniProt Q96AX9))", "lacZ reporter activity": 0}
{"data": "Series 2", "target": "RNA binding protein fox-1 homolog 2, RRM domain, GST-SBP tag (RBFOX2, Homo sapiens, UniProt O43251-10, residues 100-194)", "method": "RNA Bind-n-Seq", "form": "RNA", "sample": "in vitro", "tested at": "365 nM", "setting": "natural RNA segment, single round, ends assumed", "reference": "no-protein control", "direction": "higher = stronger binding", "constant ends, left off below": "GGGAGUUCUACAGUCCGACGAUC … UGGAAUUCUCGGGUGCCAA"}
{"Sequence": "GGCCAUCUUUAAUGUGGGCACCAGAGACUCGGAGCGGUCCUUUUGCUUCAAAGACAGGAGUUCACUGGGGGAUUCAGAAAGCUUGCCGUUUAUGUUGGUCGCAUCAAACA", "RBNS enrichment (R)": 1.59}
{"Sequence": "UCCUGAAACGGGCAGAGAUGAUGAACAGAAGUGUAUGUAAAUACAGCAGCUAGUGGGAGAGCACCAGUUGGGCCUAAUCCUGCCUCAUCAUUCUUGGCAGGAAUCUGCAA", "RBNS enrichment (R)": 0.421}
{"Sequence": "AUAUAGUGUGCCAAUUUUGUGACUGUAAUCAUGUGAAAGCCCCAUUGAACCGAAGAAUUAUGUCUGCCCUACAAAUUGAUUUGUGUAAAAUAAAGUAUAACUAAAUCUCC", "RBNS enrichment (R)": 2.94}
{"Sequence": "CCUGCGGGCUUUUCCCCGGUCCCUUGAGACCUCAGCCAUGAGGAGUUGCUGUUUGUUUGACAAAGAAACCCAAGUGGGGGCAGAGGGCAGAGGCUGGAGGCAGGGCCUUG", "RBNS enrichment (R)": 0.48}
{"Sequence": "GGACUUCCCUCCAGCUGCCUCUUCAUCUGGGAAUGAGCUAAGCAAGGCUGAGCCUCCUCCUGUUGCUGAAAUAAUGAUGAUAUAAAGGCUGGAUUUGGAGUUUGUAUCCC", "RBNS enrichment (R)": 0.435}
{"Sequence": "UGUGCCUUGUCUCUACUCCCUCUCUUGGAUCUGGGGAGGAGGGGCAGAGACCUGGGACUCUGUAUUUCUAUAGUUCUCCUGGCAGAGCCUUUGAGAAUGGGGAGAAACAG", "RBNS enrichment (R)": 0.827}
{"Sequence": "UGGACAAGUAAUUCCUGGGGUUCUGUCUUUGGUAGCAUCACCAGGGAUAUUUGGGUGGGACAGACAGAAGACACACAGCUGCCUGUUCUCUCCUGCCCAUCAUGUUUGGC", "RBNS enrichment (R)": 0.409}
{"Sequence": "AAAGAAAAGUUGAUGAUAGAUUGCCUUCACCCUCACAGCGCACAAAUAAAGCUACGAUGCCAACUUUCAGAUGCAAGAAUGAAGACACUGUGUGGGUAGGGCACUGAGCU", "RBNS enrichment (R)": 0.538}
{"data": "Series 3", "target": "CCNB1, cyclin fold, Cln2 fusion (human)", "method": "yeast growth competition, sequencing", "sample": "yeast", "setting": "weak parent motif", "reference": "not given", "direction": "higher = stronger binding", "starting sequence": "CDC25A docking peptide (human); PPHRRRLLFACSP"}
{"Substitution": "P13I", "normalised enrichment score": 0.744}
{"Substitution": "R4A", "normalised enrichment score": 1.23}
{"Substitution": "C11D", "normalised enrichment score": -0.117}
{"Substitution": "R5K F9L", "normalised enrichment score": 0.719}
{"Substitution": "A10K", "normalised enrichment score": 0.72}
{"Substitution": "L8D", "normalised enrichment score": 0.465}
{"Substitution": "A10P", "normalised enrichment score": 0.762}
{"Substitution": "F9S", "normalised enrichment score": 1.21}
{"Substitution": "L7V", "normalised enrichment score": 0.85}
{"Substitution": "F9A", "normalised enrichment score": 1.33}
{"Substitution": "P2N", "normalised enrichment score": 0.221}
{"Substitution": "H3Y", "normalised enrichment score": 1.16}
{"Substitution": "L7D", "normalised enrichment score": 0.225}
{"Substitution": "S12F", "normalised enrichment score": 0.223}
{"Substitution": "S12R", "normalised enrichment score": 0.907}
{"Substitution": "R6A", "normalised enrichment score": -0.0247}
{"Substitution": "R5W", "normalised enrichment score": 0.284}
{"Substitution": "A10G", "normalised enrichment score": 0.226}
{"data": "Series 4", "target": "ABI1, truncated, D143A, DHFR fusion (Arabidopsis thaliana)", "method": "DHFR PCA, deep sequencing", "sample": "yeast", "setting": "methotrexate growth selection, single substitutions", "with": "(+)-ABA 4.8 µM", "reference": "wild-type fitted maximum", "direction": "higher = stronger binding", "starting sequence": "PYL1, truncated, DHFR fusion (Arabidopsis thaliana); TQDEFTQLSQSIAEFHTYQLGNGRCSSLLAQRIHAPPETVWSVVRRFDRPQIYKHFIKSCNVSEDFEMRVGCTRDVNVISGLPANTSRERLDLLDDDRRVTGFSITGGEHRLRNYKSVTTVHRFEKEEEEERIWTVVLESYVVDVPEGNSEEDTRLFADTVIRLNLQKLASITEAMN; partner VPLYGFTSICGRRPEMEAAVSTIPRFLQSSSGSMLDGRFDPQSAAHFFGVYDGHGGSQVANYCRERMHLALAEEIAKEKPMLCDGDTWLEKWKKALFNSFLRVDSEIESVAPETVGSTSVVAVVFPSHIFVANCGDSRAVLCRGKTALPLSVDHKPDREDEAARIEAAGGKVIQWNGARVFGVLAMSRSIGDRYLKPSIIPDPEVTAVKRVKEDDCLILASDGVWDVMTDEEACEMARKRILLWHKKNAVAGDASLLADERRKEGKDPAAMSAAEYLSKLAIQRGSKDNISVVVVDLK"}
{"Substitution": "G108K", "relative binding score": "8.45%"}
{"Substitution": "L166A", "relative binding score": "-3.84%"}
{"Substitution": "D48I", "relative binding score": "-4.67%"}
{"Substitution": "C72I", "relative binding score": "51.4%"}
{"Substitution": "K116T", "relative binding score": "52.6%"}
{"Substitution": "I133N", "relative binding score": "81.9%"}
{"Substitution": "R123N", "relative binding score": "68.2%"}
{"Substitution": "R24W", "relative binding score": "2.12%"}
{"Substitution": "Y115K", "relative binding score": "-1.83%"}
{"Substitution": "G148W", "relative binding score": "4.91%"}
{"Substitution": "G102L", "relative binding score": "-9.61%"}
{"note": "For quick reference, copied from above (series 3):"}
{"Substitution": "L7V", "normalised enrichment score": 0.85}
{"Substitution": "F9A", "normalised enrichment score": 1.33}
{"Substitution": "P2N", "normalised enrichment score": 0.221}
{"Substitution": "H3Y", "normalised enrichment score": 1.16}
{"Substitution": "L7D", "normalised enrichment score": 0.225}
{"Substitution": "S12F", "normalised enrichment score": 0.223}
{"Substitution": "S12R", "normalised enrichment score": 0.907}
